{"data": "Results gathered from unrelated publications", "PGR": "Progesterone receptor (PGR, Homo sapiens, UniProt P06401)", "note": "Lines come from different studies, so protocols differ. ± gives the spread as reported.", "chain of UniProt P06401 (whole entry, looked up)": "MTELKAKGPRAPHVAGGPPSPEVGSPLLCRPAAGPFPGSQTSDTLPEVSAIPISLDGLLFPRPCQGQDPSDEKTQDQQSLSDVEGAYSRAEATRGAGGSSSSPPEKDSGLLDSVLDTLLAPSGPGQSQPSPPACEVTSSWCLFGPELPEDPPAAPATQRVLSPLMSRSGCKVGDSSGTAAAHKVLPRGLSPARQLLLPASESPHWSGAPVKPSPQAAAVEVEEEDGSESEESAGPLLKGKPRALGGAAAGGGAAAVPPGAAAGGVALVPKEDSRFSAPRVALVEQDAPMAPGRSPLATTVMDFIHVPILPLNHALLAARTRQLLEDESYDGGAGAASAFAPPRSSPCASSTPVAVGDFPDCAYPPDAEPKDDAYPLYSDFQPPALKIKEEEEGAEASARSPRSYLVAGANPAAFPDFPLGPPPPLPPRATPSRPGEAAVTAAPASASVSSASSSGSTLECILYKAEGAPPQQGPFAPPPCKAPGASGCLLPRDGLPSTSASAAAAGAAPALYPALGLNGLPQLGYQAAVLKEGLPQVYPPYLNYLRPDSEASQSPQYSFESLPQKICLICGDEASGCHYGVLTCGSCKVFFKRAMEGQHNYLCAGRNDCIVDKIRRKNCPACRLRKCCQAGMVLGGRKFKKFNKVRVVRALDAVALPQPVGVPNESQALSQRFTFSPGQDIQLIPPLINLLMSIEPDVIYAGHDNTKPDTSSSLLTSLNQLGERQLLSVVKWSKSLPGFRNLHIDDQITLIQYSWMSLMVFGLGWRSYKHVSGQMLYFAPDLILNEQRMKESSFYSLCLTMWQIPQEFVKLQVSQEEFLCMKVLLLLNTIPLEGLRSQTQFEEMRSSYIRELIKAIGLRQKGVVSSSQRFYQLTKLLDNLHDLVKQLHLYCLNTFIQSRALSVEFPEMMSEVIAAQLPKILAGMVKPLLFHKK", "chain of UniProt Q9NZJ5 (whole entry, looked up)": "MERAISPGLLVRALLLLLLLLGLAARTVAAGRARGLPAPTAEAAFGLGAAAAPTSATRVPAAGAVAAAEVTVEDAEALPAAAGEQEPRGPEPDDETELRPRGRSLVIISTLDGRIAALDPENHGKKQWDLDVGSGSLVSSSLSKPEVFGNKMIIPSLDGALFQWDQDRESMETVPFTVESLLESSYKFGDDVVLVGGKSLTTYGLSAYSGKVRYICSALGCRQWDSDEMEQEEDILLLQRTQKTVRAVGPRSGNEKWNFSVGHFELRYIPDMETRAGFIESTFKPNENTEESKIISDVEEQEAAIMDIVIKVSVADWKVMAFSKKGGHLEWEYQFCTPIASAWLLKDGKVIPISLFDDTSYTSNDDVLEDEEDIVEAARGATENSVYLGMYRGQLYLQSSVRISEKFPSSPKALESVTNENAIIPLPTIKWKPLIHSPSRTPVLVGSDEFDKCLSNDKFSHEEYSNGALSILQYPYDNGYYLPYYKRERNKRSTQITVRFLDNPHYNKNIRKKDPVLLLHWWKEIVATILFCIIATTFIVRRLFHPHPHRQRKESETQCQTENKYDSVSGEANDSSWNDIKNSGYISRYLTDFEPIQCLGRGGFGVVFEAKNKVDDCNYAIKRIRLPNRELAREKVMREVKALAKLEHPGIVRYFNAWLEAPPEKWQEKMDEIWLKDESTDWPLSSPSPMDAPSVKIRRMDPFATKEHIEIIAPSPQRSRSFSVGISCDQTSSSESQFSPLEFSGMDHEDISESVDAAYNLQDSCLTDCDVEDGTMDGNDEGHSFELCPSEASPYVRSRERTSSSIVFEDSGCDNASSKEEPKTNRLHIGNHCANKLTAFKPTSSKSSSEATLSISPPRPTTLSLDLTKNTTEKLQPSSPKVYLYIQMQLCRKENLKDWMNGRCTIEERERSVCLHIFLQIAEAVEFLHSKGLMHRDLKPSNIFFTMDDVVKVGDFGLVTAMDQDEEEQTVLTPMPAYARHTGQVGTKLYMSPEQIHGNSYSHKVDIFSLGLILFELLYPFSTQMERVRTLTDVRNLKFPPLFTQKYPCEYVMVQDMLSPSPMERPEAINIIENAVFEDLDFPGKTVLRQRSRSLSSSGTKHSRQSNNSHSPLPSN", "chain of UniProt P11362 (whole entry, looked up)": "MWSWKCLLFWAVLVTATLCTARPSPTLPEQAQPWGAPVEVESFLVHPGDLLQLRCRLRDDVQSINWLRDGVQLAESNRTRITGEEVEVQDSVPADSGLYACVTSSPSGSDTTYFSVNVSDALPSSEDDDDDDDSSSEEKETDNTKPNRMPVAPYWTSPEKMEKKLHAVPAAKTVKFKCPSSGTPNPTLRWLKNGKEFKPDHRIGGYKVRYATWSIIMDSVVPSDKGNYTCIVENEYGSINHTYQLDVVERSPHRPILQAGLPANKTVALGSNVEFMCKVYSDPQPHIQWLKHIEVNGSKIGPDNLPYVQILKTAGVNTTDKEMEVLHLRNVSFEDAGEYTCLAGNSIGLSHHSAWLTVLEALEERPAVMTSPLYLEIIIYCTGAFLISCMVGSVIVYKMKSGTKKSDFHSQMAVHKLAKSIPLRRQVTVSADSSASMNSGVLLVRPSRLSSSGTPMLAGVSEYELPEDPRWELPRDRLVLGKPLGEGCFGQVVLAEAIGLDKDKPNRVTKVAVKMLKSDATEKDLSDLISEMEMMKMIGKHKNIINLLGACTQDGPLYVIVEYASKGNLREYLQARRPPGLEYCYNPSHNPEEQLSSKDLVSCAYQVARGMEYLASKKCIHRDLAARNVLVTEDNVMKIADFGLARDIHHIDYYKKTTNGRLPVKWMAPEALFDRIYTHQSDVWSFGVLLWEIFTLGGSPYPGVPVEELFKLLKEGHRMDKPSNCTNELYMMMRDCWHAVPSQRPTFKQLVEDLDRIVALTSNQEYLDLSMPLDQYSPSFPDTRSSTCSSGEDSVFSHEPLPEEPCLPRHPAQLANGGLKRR", "chain of UniProt P35462 (whole entry, looked up)": "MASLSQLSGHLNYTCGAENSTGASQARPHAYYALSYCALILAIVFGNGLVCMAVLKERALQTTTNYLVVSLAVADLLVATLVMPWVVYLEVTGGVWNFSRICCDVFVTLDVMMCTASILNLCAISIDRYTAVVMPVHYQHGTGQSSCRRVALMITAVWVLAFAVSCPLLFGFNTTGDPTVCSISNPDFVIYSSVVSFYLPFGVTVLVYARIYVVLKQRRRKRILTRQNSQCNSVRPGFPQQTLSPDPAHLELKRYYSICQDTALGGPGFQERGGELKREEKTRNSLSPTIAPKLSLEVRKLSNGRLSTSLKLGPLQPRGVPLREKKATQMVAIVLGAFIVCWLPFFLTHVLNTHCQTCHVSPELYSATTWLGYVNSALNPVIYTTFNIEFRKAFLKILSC", "chain of UniProt Q9UM73 (whole entry, unmodified, looked up)": "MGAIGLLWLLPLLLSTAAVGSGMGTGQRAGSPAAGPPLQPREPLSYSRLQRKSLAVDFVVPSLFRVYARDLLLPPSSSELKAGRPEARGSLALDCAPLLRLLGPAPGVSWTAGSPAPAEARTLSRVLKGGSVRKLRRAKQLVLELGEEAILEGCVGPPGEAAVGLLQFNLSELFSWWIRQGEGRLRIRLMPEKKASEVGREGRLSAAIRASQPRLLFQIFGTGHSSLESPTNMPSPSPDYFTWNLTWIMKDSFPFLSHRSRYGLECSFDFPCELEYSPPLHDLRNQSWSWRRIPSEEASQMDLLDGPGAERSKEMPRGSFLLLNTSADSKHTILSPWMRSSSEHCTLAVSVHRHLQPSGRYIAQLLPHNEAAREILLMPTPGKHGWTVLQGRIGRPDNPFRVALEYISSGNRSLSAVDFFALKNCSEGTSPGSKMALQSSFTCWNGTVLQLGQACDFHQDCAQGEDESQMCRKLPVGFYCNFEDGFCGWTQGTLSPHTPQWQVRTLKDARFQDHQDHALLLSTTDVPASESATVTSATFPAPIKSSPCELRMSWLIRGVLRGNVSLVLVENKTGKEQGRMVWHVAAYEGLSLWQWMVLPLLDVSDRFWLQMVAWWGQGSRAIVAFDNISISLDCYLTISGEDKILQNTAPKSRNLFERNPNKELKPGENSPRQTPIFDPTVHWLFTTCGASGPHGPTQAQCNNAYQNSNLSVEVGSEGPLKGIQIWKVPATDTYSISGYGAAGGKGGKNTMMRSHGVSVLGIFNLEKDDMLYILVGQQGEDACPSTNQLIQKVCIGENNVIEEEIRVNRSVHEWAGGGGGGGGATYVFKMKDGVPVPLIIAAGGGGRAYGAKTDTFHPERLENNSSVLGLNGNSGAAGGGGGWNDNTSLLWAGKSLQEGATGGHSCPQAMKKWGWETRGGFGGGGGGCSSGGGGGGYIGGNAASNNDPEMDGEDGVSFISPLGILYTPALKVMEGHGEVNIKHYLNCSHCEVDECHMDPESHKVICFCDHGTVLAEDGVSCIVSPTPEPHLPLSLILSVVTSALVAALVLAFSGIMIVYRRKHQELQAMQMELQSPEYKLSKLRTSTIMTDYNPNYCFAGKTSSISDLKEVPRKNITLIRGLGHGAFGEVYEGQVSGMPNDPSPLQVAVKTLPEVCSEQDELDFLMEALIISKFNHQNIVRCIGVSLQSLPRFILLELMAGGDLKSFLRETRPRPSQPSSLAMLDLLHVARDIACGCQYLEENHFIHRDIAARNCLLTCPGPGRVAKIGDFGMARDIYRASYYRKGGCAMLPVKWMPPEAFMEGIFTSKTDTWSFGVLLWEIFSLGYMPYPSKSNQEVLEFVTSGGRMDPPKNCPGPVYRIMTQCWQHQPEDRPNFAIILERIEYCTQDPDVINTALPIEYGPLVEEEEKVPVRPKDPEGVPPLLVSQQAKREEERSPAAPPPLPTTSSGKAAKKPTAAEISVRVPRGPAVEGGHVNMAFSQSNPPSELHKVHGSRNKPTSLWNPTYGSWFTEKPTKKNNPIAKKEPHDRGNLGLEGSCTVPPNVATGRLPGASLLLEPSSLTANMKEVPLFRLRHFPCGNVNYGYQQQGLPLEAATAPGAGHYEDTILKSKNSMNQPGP"}
{"SMILES": "COc1ccc(F)cc1S(=O)(=O)Nc1cnc2c(c1)C(=O)NCCO2", "target or system": "PGR", "test": "radioligand binding, inhibitor", "conditions": "10 µM", "measurement": "inhibition", "result": "-3%"}
{"SMILES": "N[C@H](C(=O)N1CCCC1)C1CCN(c2nccc3c(-c4ncc(Cl)cc4Cl)cccc23)CC1", "target or system": "Fibroblast growth factor receptor 1 (FGFR1, Homo sapiens, UniProt P11362)", "test": "kinase activity, inhibitor", "conditions": "10 µM, added: ATP 1 mM", "measurement": "inhibition", "result": "11.2%"}
{"SMILES": "O=C(O)c1ccccc1/C=N/Nc1nc(-c2ccccc2Cl)cs1", "target or system": "RAC-beta serine/threonine-protein kinase (AKT2, Homo sapiens, UniProt P31751)", "test": "kinase activity", "conditions": "1 µM, mean", "measurement": "inhibition", "result": "0.19%"}
{"SMILES": "CN(C)[C@H]1C[C@@]23CC[C@@]4(O2)C(=CC[C@]2(C)[C@@H](c5ccc6ccncc6c5)CC[C@H]24)C=C3[C@@H](O)[C@@H]1O", "target or system": "Serine/threonine-protein kinase TAO2 (TAOK2, Homo sapiens, UniProt Q9UL54)", "test": "ATP probe labelling, inhibitor, KiNativ profiling", "conditions": "0.1 µM", "measurement": "inhibition", "result": "9.8%"}
{"SMILES": "O=C1NC2(CC2)COc2ncc(F)cc2[C@H]2COCCN2c2ccn3ncc1c3n2", "system": "Sprague-Dawley rat, male, thymus", "conditions": "oral, 20 mg/kg/day, 4 weeks", "measurement": "organ weight", "result": "0.594 ± 0.099 g"}
{"SMILES": "CC(C)[C@H]1NC(=O)C[C@H]2/C=C/CCSSC[C@@H](NC1=O)C(=O)N[C@H](Cc1cccc3ccccc13)C(=O)NCC(=O)O2", "target or system": "ALK tyrosine kinase receptor (ALK, Homo sapiens, UniProt Q9UM73, G1202R)", "test": "enzyme activity, inhibitor", "conditions": "10 µM", "measurement": "inhibition", "result": "8.9%"}
{"SMILES": "CN[C@@H]1[C@H](O)[C@H](NC)[C@H]2O[C@]3(O)[C@H](O[C@@H]2[C@H]1O)O[C@H](C)C[C@H]3NC(=O)Cc1cc(Cl)ccn1", "target or system": "D(3) dopamine receptor (DRD3, Homo sapiens, UniProt P35462)", "test": "ligand displacement, radioligand", "conditions": "10 µM", "measurement": "inhibition", "result": "-2%"}
{"SMILES": "C[C@H](NCc1ccc(-c2ccc(C(F)(F)F)cc2)cc1)C(N)=O", "target or system": "PGR", "test": "radioligand binding, SafetyScreen panel", "conditions": "1 µM, added: 0.50 nM [3H]Progesterone", "measurement": "inhibition", "result": "-4%"}
{"SMILES": "CS(C)(=O)=Nc1ccc(-c2ccc(-c3nc4cc(O[C@@H]5CO[C@H]6[C@@H]5OC[C@H]6O)[nH]c4cc3F)cc2)cc1", "target or system": "Eukaryotic translation initiation factor 2-alpha kinase 3 (EIF2AK3, Homo sapiens, UniProt Q9NZJ5)", "test": "enzyme activity, inhibitor", "conditions": "10 µM", "measurement": "inhibition", "result": "9%"}
{"note": "Excerpt of the above:"}
{"SMILES": "CN[C@@H]1[C@H](O)[C@H](NC)[C@H]2O[C@]3(O)[C@H](O[C@@H]2[C@H]1O)O[C@H](C)C[C@H]3NC(=O)Cc1cc(Cl)ccn1", "target or system": "D(3) dopamine receptor (DRD3, Homo sapiens, UniProt P35462)", "test": "ligand displacement, radioligand", "conditions": "10 µM", "measurement": "inhibition", "result": "-2%"}
